Published values collected from several papers.
Compare with care: the assays were run in different laboratories. Several values in a cell are separate wells, animals, samples, runs or records. ± marks the error that the study gave.
RIPK2: Receptor-interacting serine/threonine-protein kinase 2 (RIPK2, Homo sapiens, UniProt O43353)

N#Cc1ccc(N(CCc2c(F)cc(OS(N)(=O)=O)cc2F)n2cnnc2)cc1
IC50 (Steryl-sulfatase (STS, Homo sapiens, UniProt P08842); enzyme activity, inhibitor; JEG-3 intact monolayers): 0.1 to 1 µM

N=C(N)NCCC[C@H](NC(=O)[C@H](CC(=O)O)NC(=O)[C@@H]1CSCC(=O)NCC(=O)N[C@@H](Cc2c[nH]cn2)C(=O)N[C@H](Cc2ccccc2)C(=O)N[C@@H](CCCNC(=N)N)C(=O)N[C@H](Cc2c[nH]c3ccccc23)C(=O)N1)C(=O)N[C@@H](Cc1ccccc1)C(=O)NCC(N)=O
IC50 (MC1R (Homo sapiens, UniProt Q01726); ligand displacement, radioligand): 1.8 µM

NC1CCCc2c1[nH]c1ccc(Cl)cc21 (racemic)
IC50 (SLC39A8 (Homo sapiens, UniProt Q9C0K1); Cd2+ uptake, inhibitor, FLIPR fluorescence; HEK-293T transfected with ZIP8; with: 5 µM Cd2+): 15.5 ± 1.2 µM

C[C@@H](O)[C@H](NC(=O)CP(=O)(O)OC[C@H]1O[C@@H](n2cnc3c(N)ncnc32)[C@H](O)[C@@H]1O)C(=O)O
IC50 (Threonylcarbamoyl-AMP synthase (tsaC, Escherichia coli, UniProt P45748); TC-AMP formation, inhibitor; with: ATP 1.2 mM, L-threonine 1.8 mM): > 180 µM

N#Cc1c(N)nc(N)nc1OCC1CCCCC1
IC50 (PIK3CG (Homo sapiens, UniProt P48736); enzyme activity, inhibitor): 7.5 µM and 12 µM

CC(NC(=O)C(C)c1ccc(-c2ccccc2)c(F)c1)C(=O)O (stereo not drawn)
IC50 (P2Y purinoceptor 14 (P2RY14, Homo sapiens, UniProt Q15391); antagonist): 0.00512 µM and < 0.01 µM

COc1ccc(C(=O)/C=C(\O)C(F)(F)C(F)(F)F)c(O)c1
IC50 (Formate-nitrite transporter (Plasmodium knowlesi, UniProt A0A679KXN5); L-lactate transport, inhibitor; yeast; pH 6.8, with: 14C-L-lactate 1 mM): 0.45 ± 0.07 µM

CC(C)C(=O)NC1CC=C(c2cc3c(Nc4cc5ncsc5cc4F)ncnc3s2)CC1 (racemic)
IC50 (RIPK2; enzyme activity, inhibitor): 0.012 µM

C=CC1C(OC2OC(CO)C(O)C(O)C2O)OC=C(C(=O)OC)C1C=CCC(=O)OC (stereo not drawn)
IC50 (PTPN1 (Homo sapiens, UniProt P18031); enzyme activity, inhibitor, absorbance): > 100 µM

N=C(NCCCC(N)C(N)=O)NCCSCC1OC(n2cnc3c(N)ncnc32)C(O)C1O (stereo not drawn)
IC50 (EHMT2 (Homo sapiens, UniProt Q96KQ7); enzyme activity, inhibitor, fluorescence): > 100 µM

CC[C@H](C)[C@@H]1NC(=O)[C@H](Cc2c[nH]c3ccccc23)NC(=O)CNC(=O)[C@@H](C)NC(=O)c2cc3cc(c2)C(=O)NC[C@H](NC(=O)[C@H](Cc2ccc(O)cc2)NC1=O)C(=O)N[C@@H](Cc1ccccc1)C(=O)N[C@@H](Cc1ccc2ccccc2c1)C(=O)N[C@@H](CCCNC(=N)N)C(=O)N[C@H](CCCNC(=N)N)C(=O)N[C@@H](CCCNC(=N)N)C(=O)N[C@H](C(=O)NCCC(=O)NCCC(=O)N[C@@H](CCCCN)C(N)=O)CNC3=O
IC50 (NF-kappa-B essential modulator, with IKK-beta (IKBKG, Homo sapiens, UniProt Q9Y6K9); inhibitor, HTRF): 2.3 ± 0.3 µM

CC1(C)CC(=O)C=C(Sc2nc3cc(Cl)ccc3s2)C1
IC50 (KDM2A (Homo sapiens, UniProt Q9Y2K7); ligand displacement, FP): > 200 µM

CC(=O)c1ccc(Nc2cc(C)nc3ccccc23)cc1
IC50 (Beta-glucuronidase (uidA, Escherichia coli, UniProt P05804); enzyme activity, inhibitor, fluorescence): 4 µM

COC(=O)CNC(=O)c1ccc(NC(=O)c2[nH]c(C)c(Cl)c2Cl)c(N2CCN(C(=O)OC(C)(C)C)CC2)c1
IC50 (gyrB (Escherichia coli, UniProt P0AES6); DNA supercoiling, inhibitor): 4.08 µM

COC(=O)[C@]1(C(C)C)C=C(C(=O)Nc2cccc(C(=O)Nc3ccc(Nc4nccc(-c5cccnc5)n4)c(C)c3)c2)C(=O)CC1
IC50 (MAPK8 (Homo sapiens, UniProt P45983); kinase activity, inhibitor; with: GSH 10 mM): 0.537 ± 0.131 µM

O=C1NCc2c1c1c3cc(Cl)ccc3[nH]c1c1[nH]c3ccc(Cl)cc3c21
IC50 (ABCG2 (Homo sapiens, UniProt Q9UNQ0); Hoechst accumulation, inhibitor; MDCK II transfected with ABCG2): 75 µM

C=CC(=O)N1CCC(c2ccccc2)CC1
IC50 (Fosb/Jund, ΔFosB isoform (Mus musculus, UniProt P13346+P15066); ΔFOSB/JUND DNA binding, fluorescence polarization; 15 min, with: TMR-cdk5 oligonucleotide): > 200 µM

O=c1[nH]c2ccccc2n1CCCCCN1CCN(c2ccc(F)cc2)CC1
IC50 (HTR7 (Homo sapiens, UniProt P34969); cAMP, antagonist, TR-FRET): 0.005 µM

O=C1C2=C(Nc3ccccc3SC2C2CC2)c2ccccc21 (racemic)
IC50 (MT-CYB, bc1 complex (Plasmodium falciparum, UniProt Q02768); enzyme activity, inhibitor; purified mitochondrial fractions): 0.007 ± 0.0022 µM

CCN(Cc1cccc(S(=O)(=O)O)c1)c1ccc(C(=C2C=CC(=[N+](CC)Cc3cccc(S(=O)(=O)[O-])c3)C=C2)c2ccccc2)cc1
IC50 (Envelope glycoprotein gp160, gp41 six-helix bundle (env, Human immunodeficiency virus type 1 group M subtype B, UniProt P04578); inhibitor): 16.3 µM

CCOc1ccc(Nc2ncnc3[nH]c(/C=C/c4ccc(OC)c(OC)c4)nc23)cc1
IC50 (ADORA2A (Homo sapiens, UniProt P29274); cAMP, ELISA): 23.2 µM

COc1ccc(C=CC(=O)c2cccc(O)c2)cc1
IC50 (Estrogen receptor (ESR1, Homo sapiens, UniProt P03372); coactivator recruitment, antagonist): 0.81 µM

CCCCC[C@H](O)/C=C/[C@H]1[C@H](O)CC(=O)[C@@H]1C/C=C\CCCC(=O)O
IC50 (SLCO2A1 (Homo sapiens, UniProt Q92959, S346F); 5 (unit not given), pH 6): 15.4 ± 3.22 µM

O=C(NC1CC1)N1CC=C(c2cc3c(Nc4cc5ncsc5cc4F)ncnc3s2)CC1
IC50 (RIPK2; enzyme activity, inhibitor): 0.012 µM

For quick reference, copied from above:
COC(=O)CNC(=O)c1ccc(NC(=O)c2[nH]c(C)c(Cl)c2Cl)c(N2CCN(C(=O)OC(C)(C)C)CC2)c1
IC50 (gyrB (Escherichia coli, UniProt P0AES6); DNA supercoiling, inhibitor): 4.08 µM

N=C(N)NCCC[C@H](NC(=O)[C@H](CC(=O)O)NC(=O)[C@@H]1CSCC(=O)NCC(=O)N[C@@H](Cc2c[nH]cn2)C(=O)N[C@H](Cc2ccccc2)C(=O)N[C@@H](CCCNC(=N)N)C(=O)N[C@H](Cc2c[nH]c3ccccc23)C(=O)N1)C(=O)N[C@@H](Cc1ccccc1)C(=O)NCC(N)=O
IC50 (MC1R (Homo sapiens, UniProt Q01726); ligand displacement, radioligand): 1.8 µM
